Experimental data gathered from unrelated publications.
Each line is one published result; not all experiments were run side by side. Values joined by “and” are separate records of one study, mostly repeats; a detail may differ.
Target: 5-hydroxytryptamine receptor 1A (HTR1A, Homo sapiens, UniProt P08908)

Compound	test	test system	setting	how to read	measurement	result
Cc1cc(Nc2nc(C[C@@]3(C(=O)O)CCN(Cc4cccc(Cl)c4F)[C@H](C)C3)cc(C)c2F)[nH]n1	agonist	–	10 µM	–	activation	-0.18%
C/C(=N\OCCCN1CCCCC1)c1ccc(C(F)(F)F)cc1	antagonist, cAMP	–	10 µM	–	inhibition	-6.89%
CCc1nnc(-c2c(OC)cc(-c3cnc4cc(-c5cnn(C)c5)ccn34)cc2OC)o1	agonist radioligand, radioligand binding	–	10 µM, SafetyScreen44 5-HT1A replicate 2	lower = stronger displacement	remaining binding	88%
CCN(CC)CCOc1ccc(-c2nnn(Cc3ccc(OC)cc3)c2N)cc1	radioligand binding	HEK293	10 µM, safety profiling	–	inhibition	-3.03%
N[C@H](C(=O)N1CCCC1)C1CCN(c2nccc3c(-c4ncc(Cl)cc4Cl)cccc23)CC1	functional response, agonist	–	10 µM	–	response	0%
Cc1cc(-c2ccc3ccccc3c2)nnc1NCCN1CCN(C)CC1	antagonist	–	concentration not given	–	antagonist activity	negative
CCOC(=O)[C@](CC)(CCCSCCOCCOCCNC(=O)c1ccc(-c2c3ccc(=N)c(S(=O)(=O)O)c-3oc3c(S(=O)(=O)O)c(N)ccc23)c(C(=O)O)c1)NC(=O)c1ccc(C2CC2)c(Cc2ccc(F)cc2)n1	ligand displacement, radioligand	–	10 µM	–	inhibition	1%
O=C1c2ccccc2CCCN1CCCCN1CCN(c2cccc(Cl)c2Cl)CC1	radioligand binding	–	concentration not given, added: [3H]8-OH-DPAT	–	inhibition	99%
CS(C)(=O)=Nc1ccc(-c2ccc(-c3nc4cc(O[C@@H]5CO[C@H]6[C@@H]5OC[C@H]6O)[nH]c4cc3F)cc2)cc1	calcium signal, antagonist	–	10 µM	–	inhibition	7%
O=C(O)c1ccc(-c2nc(-c3ccccc3Cl)c3sccn23)cc1	radioligand binding, safety screen panel	–	10 µM	baseline: control	specific binding	59.2% and 66.5%
COc1ccc(F)cc1S(=O)(=O)Nc1cnc2c(c1)C(=O)NCCO2	ligand displacement, radioligand	–	10 µM	–	inhibition	5%
CN[C@@H]1[C@H](O)[C@H](NC)[C@H]2O[C@]3(O)[C@H](O[C@@H]2[C@H]1O)O[C@H](C)C[C@H]3NC(=O)Cc1cc(Cl)ccn1	ligand displacement, radioligand	–	10 µM	–	inhibition	1%
Cc1sc2c(c1C)C(c1ccc(Cl)cc1)=NC(CC(=O)OC(C)(C)C)c1nnc(C)n1-2 (centres unmarked)	ligand displacement, radioligand	–	1 µM	–	inhibition	-14%
COc1ccccc1N1CCN(CCCCN2CCCc3ccccc3C2=O)CC1	radioligand binding	–	concentration not given, added: [3H]8-OH-DPAT	–	inhibition	97.9%
